Measured values of several laboratories.
Each numbered part is a random draw from the data of one study; scales do not carry over between parts.

Sample 1 — technique: RNA Bind-n-Seq; molecule type: RNA; matrix: in vitro; tested at: 365 nM; reference: no-protein control; reading: higher = stronger binding
Target: RNA binding protein fox-1 homolog 2, RRM domain, GST-SBP tag (RBFOX2, Homo sapiens, UniProt O43251-10, residues 100-194)
Setting: natural RNA segment, single round, ends assumed
Residues (chain): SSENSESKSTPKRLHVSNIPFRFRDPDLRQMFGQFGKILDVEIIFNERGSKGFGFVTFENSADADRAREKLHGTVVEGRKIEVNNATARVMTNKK
Sequence | RBNS enrichment (R)
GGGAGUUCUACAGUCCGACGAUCCCUCUGCCUCCCAGGUUCAAGCGAUUCUCCUGCCUCAGCCUCCAGAGUAGCUAGGAUUACAGAUACGUGCCACCAUACCCGGCUAAUUUUUAUAUUUUUAGAGACAGGGAUGGAAUUCUCGGGUGCCAA | 0.346
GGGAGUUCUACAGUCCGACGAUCUUAAUGUUUUGAUUUUUGUUUUCUGAAAUUGGAUUUUAUUUUAUUUUAUCUUAUAAUUUCAGUUCAUCUAAAUUGUGUGUUCUGUACAUGUGAUGUUUGACUGUACCAUUUGGAAUUCUCGGGUGCCAA | 2.88
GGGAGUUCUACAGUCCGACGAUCCACUGUGCACUGCUUGUGAGAAAAUGGAUUAAAAACUAUUCUUACAUUUGUUUUGCCUUUCCUCCUAUUUUUUUUUAACCUGUUAAACUCUAAAGCCAUAGCUUUUGUUUUGGAAUUCUCGGGUGCCAA | 0.603
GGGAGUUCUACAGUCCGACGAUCGCUGGUCAAGCCCCCUUUGAUUGAGUUCAUCAUGAGCCGUUGCUAAUGCCAGGCCAGUAAAAGUAUAACAGCAAAUAACCAUUGGUUAAUCUGGACUUAUUUUUGGACUUUGGAAUUCUCGGGUGCCAA | 0.355
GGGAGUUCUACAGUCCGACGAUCAGAACUCCAAUGCUGAAUGGAGAAGGGUAAUAGGUUGGUGCAGUGAAUGGGCUGGGGGUGGGGUGGCCUUCUCCAGGCCUGAGUGUUUUUGUGUCCAGCUCAGUAUCUGCUGGAAUUCUCGGGUGCCAA | 4.85
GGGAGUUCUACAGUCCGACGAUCGCUUAGUCAGCGUAGGAAUCCUCACUAAAGCAGAAGAAGUUCCAUUCAAAGUGCCAAUGAUAGAGUCAACAGGAAGGUUAAUGUUGGAAACACAAUCAGGUGUGGAUUGGUGGAAUUCUCGGGUGCCAA | 0.411
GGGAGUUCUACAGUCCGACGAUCCGAGUGCCACAGGCAUUCUGCAUUGCUCUACUCUUAGGUUUGUGUGUGUGAUCCUUCCCCUCCCUGUCGCCCACUCCUCCCUCCUCUGGCUAUCCUACCCUGUCUGUGGGUGGAAUUCUCGGGUGCCAA | 0.579
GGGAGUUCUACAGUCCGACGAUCCCGGUGUGGUGGCUCCCCAUGCAGGACGGGCCAGGCUGGGAGUGCCGCCUUCCUGUGCCAAAUUCAGUGGGGACUCAGUGCCCAGGCCCUGGCCACGAGCUUUGGCCUUGUGGAAUUCUCGGGUGCCAA | 0.314
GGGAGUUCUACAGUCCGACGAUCGAGACAACAGUACAUAUAAUAGAGGUACAAUUCGUUGGAUUUUUGUUUAUGUAUUUAUUUCAUUCCAGUUUGAUUUAUUUUAAUUGUUGAUACUUAAGUUGUCGAACAGUUGGAAUUCUCGGGUGCCAA | 0.313
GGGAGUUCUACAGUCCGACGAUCCUGAAUAUAUGCAAUAUCCGUCCGUCUGUCUGGGUCAAGCUCAGCUGUGGGGAGUCCCAGUGGUGGAGGGGACACAGCGGGCCCGUUCCCAAGUCCGUGAUUUCAGUUUUUGGAAUUCUCGGGUGCCAA | 0.207
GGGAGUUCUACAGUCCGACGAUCGGGAGCUCUGCUCUGAGCUUGCCACACUGCUGAGAGCACCCACUGUCCUGACCAGAGUCUCAGUGGUCCUGACCCCCAAUGUGGGCAGGGGCUGGGCAGGAGGGUGGGGUUGGAAUUCUCGGGUGCCAA | 2.45
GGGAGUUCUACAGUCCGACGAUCUACCCCGGGAAAUCCCUGUGGCCAGUUUGAACACCCCUGCUGUAACCUUCCCUCUGUUCCAUGGUCUUUGUGAACCUGCUUAGAGGUAUAGUUUUGAUAACCACAGUUUUUGGAAUUCUCGGGUGCCAA | 0.3

Sample 2 — technique: RNA Bind-n-Seq; molecule type: RNA; matrix: in vitro; tested at: 20 nM; setting: 6-mer, flanks averaged, single round; together with: 150 mM KCl; reference: input library; reading: higher = stronger binding
Target: TAR DNA-binding protein 43, full length, His tag (TARDBP, Homo sapiens, UniProt Q13148, residues 1-414)
Sequence | 6-mer enrichment (R)
GCUAGC | 0.87
CCAGAC | 0.699
CGGAAC | 0.848
GGGCUA | 1.97
AGUACU | 0.593
CAGAAG | 0.95
CUGUAA | 0.649
GUGACC | 0.855
ACGGGU | 1.97
GCCCCC | 0.746
AGAUCA | 0.633
UACCCU | 0.621
UUCGAU | 0.549
UGGAUA | 0.776
AGAGCA | 0.862
UUUAUA | 0.638
CUCUAC | 0.55
UCGUGG | 1.36
UGACGG | 1.52
GAUCCC | 0.64
CCUACG | 0.681
CGUCUA | 0.592
GUUAAA | 0.658
UAUCUU | 0.575
UACAAG | 0.722

Sample 3 — technique: protein binding microarray; molecule type: double-stranded DNA, one strand shown; matrix: in vitro; tested at: not given; reference: not given; reading: higher = stronger binding
Target: Histone acetyltransferase KAT6A, winged helix 2, GST fusion (KAT6A, Homo sapiens, UniProt Q92794, residues 85-181)
Setting: 8-mer, flanks averaged, mean of 2 arrays, mostly near background
Residues (chain): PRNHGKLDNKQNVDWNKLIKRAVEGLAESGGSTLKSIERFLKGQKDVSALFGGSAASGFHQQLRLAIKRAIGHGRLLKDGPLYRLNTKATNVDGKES
Sequence | E-score
AGGGTAGC | -0.00609
AGAGCACC | 0.0703
GGCCTCAA | 0.205
ACTCCAAC | 0.0925
GAGCGCGA | 0.0829
CTTCGGGC | 0.103
CGACCGTC | -0.143
ATGGCAAG | 0.0732
AATTGCCT | 0.0361
ATGCATCA | 0.0788
GCTATGGA | -0.207
CAAGTTGG | 0.0144
AACGTTTG | -0.128
AGCACTGC | -0.0191
CAGCGCAG | 0.216
ACGGCTCG | 0.0536
CGAATTCA | 0.168
AAGGGAAA | 0.0103
ATTGATCC | 0.0469
GCCCCGAC | 0.132
CATAAAAC | -0.0643
GTCAGTCA | -0.196
ATGGGGTA | -0.0657
GTGCACGA | -0.0868

Sample 4 — technique: RNA Bind-n-Seq; molecule type: RNA; matrix: in vitro; tested at: not given; reference: input RNA pool; reading: higher = stronger binding
Target: RING finger protein unkempt homolog, zinc fingers 1-6, GST-SBP tag (UNK, Homo sapiens, UniProt Q9C0B0, residues 30-357)
Sequence of UniProt Q9C0B0 (30-357, looked up): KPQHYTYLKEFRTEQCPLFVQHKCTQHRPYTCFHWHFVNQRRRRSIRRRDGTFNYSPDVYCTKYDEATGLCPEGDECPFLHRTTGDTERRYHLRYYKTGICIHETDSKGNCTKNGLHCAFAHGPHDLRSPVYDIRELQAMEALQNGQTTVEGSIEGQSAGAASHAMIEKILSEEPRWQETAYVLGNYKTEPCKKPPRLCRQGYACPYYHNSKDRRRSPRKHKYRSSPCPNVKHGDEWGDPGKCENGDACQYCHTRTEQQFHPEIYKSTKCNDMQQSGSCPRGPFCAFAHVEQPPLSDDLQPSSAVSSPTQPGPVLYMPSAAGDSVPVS
Setting: RNA with constant flanks, human and mouse sites, ends assumed
Sequence | bound/input enrichment
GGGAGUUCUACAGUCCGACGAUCCAGAAAAACUUCUUUACAGAUUUAAUUCAAGACUGGUCUAGUGACAGUCCUCCAGACAUUUUUUCAUUUGUUCCAUAUACGUGGAAUUUUAAAAUCAUGUUUCAUCAGUUUGAAAUGAUUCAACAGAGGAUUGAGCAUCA | 0.172 ratio
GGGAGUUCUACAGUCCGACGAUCUUCUGCACAUCGGAUGCACGCAUAAACUUGAAUUUAUUCUAGCAGUUAACUUAGUUAGAUGGGGCAGAGGAAGUGAAAACUUGAGGGCAUUAUUAAUGCUGCUUUUAGCGUAUGUCCCUUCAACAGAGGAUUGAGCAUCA | 0.563 ratio
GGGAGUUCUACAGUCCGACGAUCAUUGUAUAUUAUGAACAGCUGACUAAACAUAAUCACCACAGAAUAAGACAAUAUCAUAUAAUAGAUUAAAAUGUUGUGCAUCCUUUUGUCUGGUUAAAAAUUUUUUAAAAAAACUUCAAUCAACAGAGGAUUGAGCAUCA | 11.6 ratio
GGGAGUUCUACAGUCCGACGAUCUCAAAUAAUCAUCAGUGCAAAUUCUGUAGUAGACAUUUUUGUUAUAAAAAGUCUUUAGAGAAUCAUUUGGCUAAAACCCAUAGGUCCCUUUUAUUAGGGAAAAAACAUGGGUUAAAAAUGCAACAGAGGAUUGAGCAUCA | 0.66 ratio
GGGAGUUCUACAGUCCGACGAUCGGCUCUAACUACUUUGUGCGGCUCUACACGGAGCCGCUGCUGGUGAACCUGCCGACACCGGACUUCAGCAUGCCCUACAACGUGAUCUGCCUCACGUGCACUGUGGUGGCCGUGUGCUAUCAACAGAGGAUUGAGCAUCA | 0.0451 ratio
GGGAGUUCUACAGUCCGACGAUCAAAGGAGAAUCCGGCCAGUCAUGGCCUAGGUUAACAAAGGAAAGGGCAAAGCUUAAUUGGCUCAGUGUGGACUUCAAUAAUUGGAAAGACUGGGAGGAUGACUCAGAUGAAGACAUGUCGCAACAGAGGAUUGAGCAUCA | 0.808 ratio
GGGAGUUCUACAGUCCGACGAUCUUUGAUGUAAGAAUUGAACGGGACGCACAAGAGAUGGCUGAUAGUUUGGGAGUUAGAAUCUUUAGUGCAGAAAUUAUUUAUCACUUAUUUGAUGCCUUUACAAAAUACAGACAGGACUACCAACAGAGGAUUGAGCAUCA | 3.78 ratio
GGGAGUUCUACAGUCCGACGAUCCAGAACUGUGGUCCAAGUUUCCAGUCUCUGAUUGUGAAGAAGGAAUUUGUUAAAGAGAAUUUAGUUAAGCUACUGAAUCCCAGAUACAACUUGCCAUUAGACAUUCAGAAUAGAAUCUUGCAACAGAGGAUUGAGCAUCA | 0.617 ratio
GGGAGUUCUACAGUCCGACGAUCGCAGGAUCUUCUAAGUACCAGUGGGACAUUAUGAAAUCCCUUGGGCUCUCUGAUGACGACAUAGUGAAGUUUUCUGAAGCAGAGCACUGGCUUGAUUAUUUCCCACCACUGGCCGUUCAGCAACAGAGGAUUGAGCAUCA | 0.132 ratio
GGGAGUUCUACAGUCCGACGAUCUCUUACACGAUCCAGUCUGAGCUGGGAGACUAUGACCCAGAACUGCACGGCAUGGAUUAUGUUAGUGAUUUUAAACUGGCUCCAAAUCAGACCAAGGAACUUGAAGAAAAGGUCAUGGAACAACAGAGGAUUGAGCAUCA | 0.171 ratio
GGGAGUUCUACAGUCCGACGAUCGUAUCAAAAGUUUUAUUGUCCAUAUGUUCUCUACUUUGUGAUCCUAAUCCAGAUGACCCCUUAGUACCAGAUAUUGCACAAAUCUAUAAAUCAGACAAAGAAAAAUACAACAGACAUGCACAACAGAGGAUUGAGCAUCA | 2.48 ratio
